Measured values gathered from unrelated publications.
Each line is one published result; not all experiments were run side by side. ± marks the error that the study gave. Values after ≈ are worked out from the molar mass of the structure shown.

| SMILES | organism | assay | system | setting | scale | quantity | value |
| --- | --- | --- | --- | --- | --- | --- | --- |
| C[C@@](O)(C(F)F)[C@H](NC(=O)c1ccc(C#CC#CC2CC2)cc1)C(=O)NO | Enterobacteriaceae | – | ESBL, carbapenemase negative | – | – | MIC90 | 0.125 µg/mL (≈ 0.332 µM) |
| O=C(Cn1ccc(=O)c2ccccc21)N/N=C/c1cc(Br)c(O)c(Br)c1 | Tobacco mosaic virus | viral infectivity, in vivo plant | – | 100 µg/mL | – | inactivation activity | 0% |
| O=C(CCNC(=O)c1ccsc1)Nc1cccc(Oc2ccc(Cl)cc2)c1 | hepatitis B virus | sucrose density gradient | HepG2.2.15.7, culture supernatant | – | – | density of HBV DNA peak | 1.24 g/mL |
| Nc1ccn(C[C@@H](CO)OCP(=O)(O)OCCCS(=O)(=O)CCCCCCCCCCCCC2CCC2)c(=O)n1 | human betaherpesvirus 5 | cytopathic effect | AD169 | – | reference: CC50 over EC50 | selectivity index | > 19 |
| CC[C@H](C)[C@H](NC(=O)[C@H](CCCCN)NC(=O)[C@H](CCCCN)NC(=O)[C@H](CC(C)C)NC(=O)[C@H](CCCCN)NC(=O)[C@H](CCC(=O)O)NC(=O)[C@H](CCCCN)NC(=O)[C@@H](NC(=O)[C@H](CCCCN)NC(=O)[C@H](CC(N)=O)NC(=O)[C@H](CCCNC(=N)N)NC(=O)[C@H](Cc1ccccc1)NC(=O)[C@H](CCCCN)NC(=O)[C@H](CCCNC(=N)N)NC(=O)[C@H](CC(C)C)NC(=O)[C@H](CCCNC(=N)N)NC(=O)[C@H](CCCCN)NC(=O)[C@H](CCCNC(=N)N)NC(=O)[C@H](CC(C)C)NC(=O)CN)[C@@H](C)CC)C(=O)NCC(=O)N[C@@H](CCC(N)=O)C(=O)N[C@@H](CCCCN)C(=O)N[C@H](C(=O)N[C@@H](CCC(N)=O)C(=O)NCC(=O)N[C@@H](Cc1ccccc1)C(=O)N[C@H](C(=O)N1CCC[C@H]1C(=O)N[C@@H](CCCCN)C(=O)N[C@@H](CC(C)C)C(=O)N[C@@H](C)C(=O)N1CCC[C@H]1C(=O)N[C@@H](CCCNC(=N)N)C(=O)N[C@H](C(=O)N[C@@H](CC(=O)O)C(=O)N[C@@H](Cc1ccc(O)cc1)C(=O)O)[C@@H](C)O)C(C)C)[C@@H](C)CC | Streptococcus mutans | inhibition zone | ATCC 1.2499 | LB agar, overnight | – | lethal concentration | 1.67 µM |
| C[C@@H]1C[C@H](Nc2ccccc2)c2cc(F)ccc2N1C(=O)c1ccc(C(F)(F)F)cc1 | Aedes albopictus | – | – | 1 µM, 72 h, second-instar larvae | reference: Abbott-corrected control | mortality | 33 ± 20% |
| NNC(=O)/C=C/c1ccc(N)cc1 | Aedes aegypti | – | – | third instar larvae | – | LC50 | 150 µg/mL |
| CC[C@H](C)[C@H](NC(=O)[C@H](CO)NC(=O)[C@H](CO)NC(=O)[C@H](Cc1ccccc1)NC(=O)CN)C(=O)N[C@@H](Cc1ccccc1)C(=O)N[C@@H](CCCNC(=N)N)C(=O)NCC(=O)N[C@H](C(=O)N[C@@H](C)C(=O)N[C@@H](CCCCN)C(N)=O)C(C)C | Escherichia coli | – | ATCC 8739 | with: 1 mM MgCl2 | – | MBC | > 128 µM |
| CCCCCCCCCC(=O)OCC1OC(n2cc(C)c(=O)[nH]c2=O)CC1N(C)C (centres unmarked) | Sindbis virus | viral replication | Vero | – | – | EC50 | > 230 nM |
| CC[C@@H](C)[C@@H](NC(=O)[C@@H](C)NC(=O)[C@@H](CCCCN)NC(=O)[C@@H](CC(C)C)NC(=O)[C@@H](C)NC(=O)[C@H](NC(=O)[C@@H](Cc1c[nH]cn1)NC(=O)[C@@H](CC(C)C)NC(=O)[C@H](NC(=O)[C@H](NC(=O)[C@@H](CCCCN)NC(=O)[C@@H](CCCCN)NC(=O)[C@@H](C)NC(=O)[C@@H](CO)NC(=O)[C@@H](CCCCN)NC(=O)[C@@H](Cc1ccccc1)NC(=O)[C@H](NC(=O)[C@@H](CCCCN)NC(=O)[C@@H](CC(C)C)NC(=O)[C@@H](Cc1ccccc1)NC(=O)[C@@H](CO)NC(=O)[C@@H](CCCCN)NC(=O)[C@@H](Cc1c[nH]c2ccccc12)NC(=O)[C@@H](CCCCN)NC(C)=O)[C@H](C)O)[C@H](C)O)C(C)C)[C@H](C)O)C(=O)N[C@H](CO)C(=O)N[C@H](CO)C(N)=O | ascomycota fungi | – | – | three species | – | MIC50 geometric mean | 28.6 µg/mL (≈ 9.56 µM) |
| S=C(NCc1ccccn1)NCc1ccccn1 | Proteus vulgaris | microbial growth, well diffusion | – | 30 µg/mL | – | inhibition zone | 26 mm |
| CCCCCCC(CC=CCCCCCCCC(=O)OCCOCn1cnc2c(=O)[nH]c(N)nc21)OC(=O)CCCCC1SCC2NC(=O)NC21 (centres unmarked) | herpes simplex virus 2 | viral replication, plaque reduction | HFF, MS | – | – | EC90 | 11400 nM |
| O=C(Cc1csc2nc(-c3ccc(Br)cc3)cn12)NN=C1CCCC1 | herpes simplex virus 2 | viral cytopathicity, microscopy | HEL | – | – | EC50 | > 100 µg/mL |
| COc1ccc(-n2c(SCC#N)nnc2[C@H](Cc2ccccc2)NC(=O)Cc2c(C)[nH]c3ccccc23)cc1 | HIV-2 | – | MT-4, wild type | – | reference: CC50 over EC50 | selectivity index | 36 |
| C=Cc1cn([C@@H]2O[C@H](CO)C[C@H]2O)c2ncnc(N)c12 | Trypanosoma congolense | parasite growth, resazurin | 6C3 diminazene-resistant | 48 h plus 24 h resazurin | – | EC50 | 40 ± 3 nM |
| CCCCCCCCC1=C(CCCCCCCC(=O)O)C1 | Toxoplasma gondii | – | Vero, RH | – | reference: CC50 over EC50 | selectivity index | 5.9 |
| C[C@@H]1C[C@H](Nc2ccccc2)c2cc(F)ccc2N1C(=O)c1ccc(C#N)c(F)c1 | Aedes albopictus | – | second-instar larvae | 72 h | – | LC50 | 224 nM |
| OC[C@H]1O[C@@H](SCc2ccc(CS[C@@H]3O[C@H](CO)[C@H](O)[C@H](O)[C@H]3O)c3ccccc23)[C@H](O)[C@@H](O)[C@H]1O | Trypanosoma brucei | parasite growth, flow cytometry | – | 5 µM, 24 h | – | viability | 96.9% |
| Oc1ccc(/C=C/c2ccc(O)cc2)cc1 | Streptococcus mutans | growth | – | – | – | MIC50 | 854 ± 58 µM (≈ 181 µg/mL) |
| C[C@@H]1C[C@H](Nc2ccccc2)c2cc(F)ccc2N1C(=O)c1ccc(Cl)cc1 | Aedes albopictus | – | – | 1 µM, 72 h, second-instar larvae | reference: Abbott-corrected control | mortality | 68 ± 11% |
| COc1ccc(Br)cc1/C=N/NC(=O)Cn1ccc(=O)c2ccccc21 | Tobacco mosaic virus | viral infectivity, in vivo plant | – | 500 µg/mL | – | inactivation activity | 7.4 ± 2.1% |
| CC[C@H](C)[C@H](NC(=O)[C@H](CCCNC(=N)N)NC(=O)[C@@H]1CCCN1C(=O)[C@@H](NC(=O)[C@H](CO)NC(=O)[C@H](CCCCN)NC(=O)[C@H](CO)NC(=O)[C@H](CCC(N)=O)NC(=O)[C@H](CCCCN)NC(=O)[C@H](CC(C)C)NC(=O)[C@H](Cc1ccccc1)NC(=O)[C@H](Cc1ccccc1)NC(=O)[C@H](CC(N)=O)NC(=O)[C@H](CCC(=O)O)NC(=O)[C@H](Cc1ccccc1)NC(=O)[C@H](CC(=O)O)NC(=O)CN)C(C)C)C(N)=O | Aedes aegypti | agonist | pharate pupae | injection, 10 fmol, 9-12 h before ecdysis | – | ecdysis contraction duration | ~10 min |
| O=C1C=C(N(Cc2ccc(Cl)nc2)CC(F)F)CO1 | Bemisia tabaci | leaf-dip assay, adults | Q biotype | 72 h | reference: LC50 resistant over susceptible strain | resistance ratio | 7 |

Excerpt of the above:
| SMILES | organism | assay | system | setting | scale | quantity | value |
| --- | --- | --- | --- | --- | --- | --- | --- |
| O=C(CCNC(=O)c1ccsc1)Nc1cccc(Oc2ccc(Cl)cc2)c1 | hepatitis B virus | sucrose density gradient | HepG2.2.15.7, culture supernatant | – | – | density of HBV DNA peak | 1.24 g/mL |
| Nc1ccn(C[C@@H](CO)OCP(=O)(O)OCCCS(=O)(=O)CCCCCCCCCCCCC2CCC2)c(=O)n1 | human betaherpesvirus 5 | cytopathic effect | AD169 | – | reference: CC50 over EC50 | selectivity index | > 19 |
